Measured values from different studies.
Each numbered part is a random draw from the data of one study; scales do not carry over between parts.

Study 1 — method: RNA Bind-n-Seq; molecule type: RNA; matrix: in vitro; concentration: not given; reference: input RNA pool; direction: higher = stronger binding
Target: RING finger protein unkempt homolog, zinc fingers 1-6, GST-SBP tag (UNK, Homo sapiens, UniProt Q9C0B0, residues 30-357)
Notes: RNA with constant flanks, human and mouse sites, ends assumed
Constant ends, left off below: GGGAGUUCUACAGUCCGACGAUC … CAACAGAGGAUUGAGCAUCA
Residues (chain): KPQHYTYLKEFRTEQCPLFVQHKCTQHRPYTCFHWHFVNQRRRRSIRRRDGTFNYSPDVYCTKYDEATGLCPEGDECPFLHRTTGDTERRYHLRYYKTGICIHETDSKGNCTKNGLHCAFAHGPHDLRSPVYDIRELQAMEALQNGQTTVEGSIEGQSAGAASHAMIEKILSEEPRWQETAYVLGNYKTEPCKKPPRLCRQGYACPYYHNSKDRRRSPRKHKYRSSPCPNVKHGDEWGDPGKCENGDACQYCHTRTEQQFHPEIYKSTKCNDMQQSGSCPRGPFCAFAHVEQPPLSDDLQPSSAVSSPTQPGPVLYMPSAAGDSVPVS
| Strand | bound/input enrichment [ratio] |
| --- | --- |
| GUAAAACUGGUACUUCCAAAGACCAAGUUUUCAAUGGUAUUACCAGAAGUAGAAGCGGCAUUAGCAGAGAUUCCCGGAGUCAGGAGUGUUGUAUUAUUUGGAGUAGAAACUCAUGUGUGC | 0.416 |
| GCCACAUCUGUUGCAGCUCGUGGUCUCGAUGUGAAACAUCUAAUUCUUGUAGUGAAUUACAGCUGCCCCAAUCAUUAUGAAGAUUAUGUGCACAGAGCUGGGCGGACUGGAAGAGCGGGC | 0.301 |
| CUUCCGCCUGAGCCCCGGAAGGGUGAUGUGGCUGCGGCAUCGCCGGCCUCGCUAUGUCUGCCAUUUUCAAUUUUCAGAGUCUAUUGACUGUAAUCUUGCUGCUUAUAUGUACCUGUGCUU | 0.182 |
| ACAUCAUGUAUGUAUGUGCAAAUGUUGUCUUUUUGAGGGAAUUUAGUAUUUAAAUUGCUUCAUAGUCUAAGUUAUUAAAUUUUGUAUGAAAUAACUCUUGAAAACAUUCACUUUUCAGUA | 0.604 |
| GCUGUGUCCCUGAGUGGUGGCUUUCCCUCCUGUCACGUGACAUCCCAUUCACUCAUCUACACUAGCCCAGUGCUCCCAUUGUCCCCUGCCUCCUCUGUAAUUUUUGCCCCUUCCAGGGUA | 0.185 |
| GGUUUGAUGCCUGGCACUUCAAGUGAUUUCAAGUAUGGGUUGCUACCAAGUACUUCAAAUGACUUCAAAUUCGGAUUGCUACCGGGUGCUUCAAAUGAUUUCAAGUAUGGAUUAUUGCCA | 0.0999 |
| UCACACUUAUAUUGUGGCAUAUAGUCAACAUGGAAGUAGACCAGCUCUGCUGAUUUGAAAUUUAGAUUUUUUAAAUUAUGUACUGGGGACAGGUUUUUGUCGCUUUACAUUGCUUCCUAG | 7.55 |
| CAGAAGCCACGUUUGUCUGGGCACAAACUGUGAUUUCUCUCUUGCCUGUGUUUUAUCUUAUUUUAUCUUAUUUCUCGCUUGCCCUAUGUAGGCCAAACUGGCUUCCAGUGUGCCUCCCGC | 3 |
| CUCCCAAGUGGAGGAACCGCAAAGAACUGACAGAUGGGGUGCCCUGGCCGGCACCCCCUUGUGUAUAACGCCUGUAGACUUGUAUAUGACUCCUUUAAUAUUGUAAAGAUGCUGAUGUAC | 0.494 |
| UUUUAUGCUCCGACAAGUGCUGUGGAGAACAUACUGGAACACUUGGCGCGAGACAUUGACGUGGUUAGACCAAAUAUUGUGAAACACCCUCUGACCCAGGAAGUAAAAGAGUGUGACGGC | 0.486 |
| UUGGACAGGGCUUAUUUAAUUAAACUUUCUGGUUUGAACAAGGAGACAUAUCAGAGCUGUCUUAAAUCUUUUGAGUGUUUACUGGGCCUGAAUUCAAAUAUUGGAAUAAGAGACCUAGCU | 0.289 |

Study 2 — method: RNAcompete; molecule type: RNA; matrix: in vitro; concentration: 20 nM; notes: 7-mer, probes averaged, single round; reference: mean of 7-mers; direction: higher = stronger binding
Target: PABPC1L2, full length, GST fusion (mouse, UniProt A0ABA7IW68)
Residues (chain): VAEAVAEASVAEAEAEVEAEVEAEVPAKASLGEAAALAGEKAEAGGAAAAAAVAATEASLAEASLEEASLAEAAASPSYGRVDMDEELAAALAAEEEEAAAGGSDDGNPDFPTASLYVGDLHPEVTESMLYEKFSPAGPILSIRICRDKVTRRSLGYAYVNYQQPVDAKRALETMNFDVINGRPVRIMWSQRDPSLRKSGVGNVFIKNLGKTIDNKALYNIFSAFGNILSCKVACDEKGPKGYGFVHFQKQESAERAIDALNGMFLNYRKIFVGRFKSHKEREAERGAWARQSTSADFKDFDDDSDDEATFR
| Strand | 7-mer Z-score |
| --- | --- |
| UAGUUAA | -0.133 |
| ACCGGAA | 0.124 |
| UCCUCAC | -0.3 |
| UUACGUG | -0.18 |
| AUAUACU | -0.117 |
| UACGUCA | -0.235 |
| CGCGGCC | -0.242 |
| CUACGAU | -0.128 |
| UGGUAUU | -0.106 |
| CCAGGCU | -0.195 |
| CUUCGCA | -0.257 |
| CAGAAGU | -0.159 |
| UCAGCGA | -0.17 |
| UUUCAGU | -0.345 |
| CUCCGCG | -0.371 |
| AUCCUCU | -0.3 |

Study 3 — method: RNA Bind-n-Seq; molecule type: RNA; matrix: in vitro; concentration: 365 nM; reference: no-protein control; direction: higher = stronger binding
Target: RNA binding protein fox-1 homolog 2, RRM domain, GST-SBP tag (RBFOX2, Homo sapiens, UniProt O43251-10, residues 100-194)
Notes: natural RNA segment, single round, ends assumed
Constant ends, left off below: GGGAGUUCUACAGUCCGACGAUC … UGGAAUUCUCGGGUGCCAA
Residues (chain): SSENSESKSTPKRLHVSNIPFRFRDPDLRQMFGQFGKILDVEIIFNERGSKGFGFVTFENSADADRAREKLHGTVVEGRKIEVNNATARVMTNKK
| Strand | RBNS enrichment (R) |
| --- | --- |
| UUUAUGCUUUGAAAGCUCUCGAGUUGUUAAAGAAAAUGUAUAUCUCGAAUAGAGAAGGGGAAACUCCUUGAAUUUCUAGGUUUAAAAAGGAACUUUUAAAUUCCUUAAUG | 0.718 |
| GAAACCAAAGAUAAACUCUGGAGGGAUCUCCUGCUGCCUUGCUUUCUUUCCUCCCUAAUUCCAAAAACCACAAAGGUUUCCCUGAGUGCAGAGAGAUCAGCCCACCCUGC | 0.504 |
| AAGAAACAGUGGAGAGUAGCCACUUCUGGUUCUAGCACUUCUCUUUUGUUAAGAUAGGGUUUGGAUUUAGUAUGAAGCUUUGGCUAAAACCCUUGGGUUUGCCUUAGAAC | 0.374 |
| UAUGUCUUUAAAUUUUGGUAAAUAUGUAGAUACCAAGCAUUAAUAACUAAUGCACACAGAAAUUUAAUAUACAGCAAUUCUUUGAAUGUUCCAGGUGUACGUAAACUAAC | 4.31 |
| GUGAGUGCUCGAGUGUAUGUGCCCAUUCCUCAUAGGUCUCUUGGCUGCUCUCAAGGUUAAUUUUAACUUGGAGACUUUCAGCUCCUUGAAAGACUAUUAAUCCCUCCAGC | 0.617 |
| CCCUUAUUUAGAAAGGAAACUGUGUGGGGGGAGAUGCAGGCCUGAGCCCCAUAGCGAGCUUGCCUUUUCUGACUGGGUCUUCUGGUCCCCCCUACACCAGCCAUAGGCCU | 0.458 |
| UUCAUUUUGAUGUUCGGGUUUUUGUGUUAAGUUAAUCUGUACAUUCUGUUUGCCAUUGUUACUUGUACUAUACAUCUGUAUAUAGUGUACGGCAAAAGAGUAUUAAUCCA | 0.473 |
| CUUGGGCUGCUACCGCCGCCACCACCGUCACCACCAUCUGUCCAGUGCUACUGUCUGUGCCCUCCUAGGCCACACAGCCUGAGGGAGCUUGCAUGGGUCUGCCCGUGUCG | 0.328 |
| CGAGGUCCUCACUUCCAGGAGCCUGUCCUUGCAAGAUGCAAUCAUCGUUCCUGCUUUUUCAUUGUCAUUAAAUUCUGUAGAAACCCAUUGUCAUUAGCUCCAAGUGUAAA | 0.679 |
| CUCUCCUUGCACCUUCUCCUGCCUCUCCACACUCCAGGUUCCCUCAGGCUUGUGUCCCCACUGCUGCAUCGUGGCGGGGUGUCACAGACCCUCUGCAGCCCCUGGCUGCC | 0.586 |
| AAGCCUAACUUUGUCGCUAGUCCUAAGGAGAAACCUUUAACCACAAAGUUUUUAUCAUUGAAGACAAUAUUGAACAACCCCCUAUUUUGUGGGGAUUGAGAAGGGGUGAA | 0.416 |
| CUGUAGGAGUGGGUCUCACAGUUAUCCAGCCCUGUGAUACUUGGGUUGACCCCAUGUUUCAGAUCCUGGAACAAGCAUCCAAGAGUAACAGAACUUUCUGAGCUGGCAAA | 0.257 |

Study 4 — method: protein-binding microarray; molecule type: double-stranded DNA, one strand shown; matrix: in vitro; concentration: 0.8 µM; notes: whole 60-bp probe, no competitor; direction: higher = stronger binding; constant ends, left off below: … GTCTTGATTCGCTTGACGCTGCTG
Target: Centromere-binding protein 1, full length, N-terminal tag (CBF1, Saccharomyces cerevisiae, UniProt P17106, residues 1-351)
Sequence of UniProt P17106 (whole entry, looked up): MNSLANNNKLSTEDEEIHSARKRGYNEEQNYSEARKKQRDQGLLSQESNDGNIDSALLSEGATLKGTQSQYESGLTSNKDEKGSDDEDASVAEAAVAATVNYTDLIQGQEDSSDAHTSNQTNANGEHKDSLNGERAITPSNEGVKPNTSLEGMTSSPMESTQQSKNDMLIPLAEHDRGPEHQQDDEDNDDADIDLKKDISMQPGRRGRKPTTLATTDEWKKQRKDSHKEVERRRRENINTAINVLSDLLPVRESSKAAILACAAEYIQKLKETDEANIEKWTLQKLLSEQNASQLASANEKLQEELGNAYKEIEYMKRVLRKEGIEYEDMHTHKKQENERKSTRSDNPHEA
| Strand | fluorescence intensity [a.u.] |
| --- | --- |
| GAAGAACCTTTACTACATGTGCTGACAACCAAATAG | 727 |
| TGTACGAAGCTATTTCATCAGGGTATAGTAGTTAGG | 510 |
| CTACCTGTTTGGCCGCACATGAGAGTTAAACGCTTC | 618 |
| GAAACGCCACCCAGGTGACTTTTGCGCTAAGTGTAG | 1010 |
| TGTACGAAGCTATTGCATGAGGTTATAGTAGTTAGG | 505 |
| TGTACGAAGCTATCCGGCGTGGGTATAGTAGTTAGG | 549 |
| CTAACTCAAAGATTGCATGATCACCATCAGAATTTC | 569 |
| CCTAACTACTATATGCATGTGCCATAGCTTCGTACA | 784 |
| GAATTATGGGAACGTGGTACCGTTATCGCAGTATAG | 987 |
| CTACATAGTGCGGGTCACCTTGAAAAATCCAAATTC | 515 |
| GAAGTACCTTTCTACCACGAGCAGTGTACTTTTTAG | 555 |
| GAAAAATTAGTAAATGGTAACGTGAAAGAAGTATAG | 779 |
| CTATTAGAAGGATACTACGTGGGGTTCAAAACCTTC | 476 |
| GAAAAATTTTTTCATGTGATTTTTTCCAGACGTTAG | 1200 |
| CTATCCTCCGTACGTAACATCACTATCCATATATTC | 544 |
| GAAAGAGTGTACCACCACGTTTTAATACTTTGTTAG | 572 |
| CCTAACTACTATACGCACGTGACATAGCTTCGTACA | 17000 |
| GAAGCTGTCGTTCGGCACGAGATCTAATCCTTCTAG | 810 |
| CTAGCCTAGGAACTACACCTGACAGCAACTTGCTTC | 671 |
| CTAAGTTATAATTATGGTGTGAGAGTTGAAATATTC | 535 |
| CTATTCAGAGATGATCACGTGATATAAACGTGATTC | 32500 |
| CTAGGGCCGTCCACTCATGTGATTTTCAACAAATTC | 1040 |
| GAAAAAAAGCCCGAGCACGCACCATGTAATTTCTAG | 574 |
| GAACAGTCTAGTGCACGTGAGATTACACTGCAATAG | 4330 |
| CTAAAAACGAAGTGACACGTAATTTCAAATTTATTC | 504 |

A few entries again (study 2):
| Strand | 7-mer Z-score |
| --- | --- |
| AUAUACU | -0.117 |
| UACGUCA | -0.235 |
| CGCGGCC | -0.242 |
| CUACGAU | -0.128 |
| UGGUAUU | -0.106 |
| CCAGGCU | -0.195 |
| CUUCGCA | -0.257 |
| CAGAAGU | -0.159 |
| UCAGCGA | -0.17 |
| UUUCAGU | -0.345 |
